# Published values of several laboratories.
# Every numbered part comes from another study and shows a few of its results, in no order. Changes are numbered by the printed parent chain.

# Study 1 — target: CCNE1, cyclin fold, Cln2 fusion (human); method: yeast growth competition, sequencing; matrix: yeast; setting: weak parent motif; baseline: not given; direction: higher = stronger binding
# Parent: SLBP docking peptide (human); ARYKRKLLINDFG
Change,normalised enrichment score
ARWKRKLLINDFG [Y3W],0.659
ARYLRKLLINDFG [K4L],1.46
NRYKRKLLINDFG [A1N],0.843

# Study 2 — method: protein-binding microarray; form: double-stranded DNA, one strand shown; matrix: in vitro; tested at: not given; direction: higher = stronger binding
# Target: Max dimerization protein 1, bHLH-zipper, MAX partner unstated (MXD1, Homo sapiens, UniProt Q05195, residues 56-136)
# Setting: k-mer, scored over probes, only values ≥0.25
# Residues (chain): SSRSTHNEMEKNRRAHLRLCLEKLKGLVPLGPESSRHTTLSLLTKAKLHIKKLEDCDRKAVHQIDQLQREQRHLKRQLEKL
Sequence,E-score
CGCGCCCC,0.252
GCACGAGA,0.331
ACGTGAAA,0.322
ACGTTCCA,0.274
AAAGCACG,0.329

# Study 3 — method: aptamer microarray, sandwich; form: DNA with 2'F-ANA; matrix: in vitro; tested at: 200 nM; together with: Cy3 exosite-II aptamer, 400 nM; direction: higher = stronger binding; sequence: GGTTGGTGTGGTTGG
# Target: Prothrombin, mature alpha-thrombin (F2, Homo sapiens, UniProt P00734)
# Setting: whole 15-mer aptamer, many near background
Modification,mean fluorescence intensity [a.u.]
2'F-ANA at 2 4 7 8 15,391
2'F-ANA at 1 2 3 6 11 12,303
2'F-ANA at 1 5 6 8 10 11 14,49.8
2'F-ANA at 3 4 5 6 7 10 11 12,62.5
2'F-ANA at 2 3 4 8 10 11 13 15,195
2'F-ANA at 2 3 7 8 9 11 13 14 15,387
2'F-ANA at 1 2 3 8 10 12 14 15,58.9

# Further values, each from its own experiment
Molecule,target,assay,system,conditions,scale,measurement,value
"PhoQ, residues 284 288 289 292 302 303 QWQEDG","PhoP, residues 12 14 15 18 19 LHSVW (Escherichia coli, UniProt P23836)","Sort-seq, refers to: YFP reporter",E. coli,"PhoQ-PhoP variant library, together with: 10 µM Mg2+","baseline: high Mg2+ state, higher = stronger signaling",fold induction,20.6

# A few entries again (study 3):
Modification,mean fluorescence intensity [a.u.]
2'F-ANA at 3 4 5 6 7 10 11 12,62.5
2'F-ANA at 1 2 3 6 11 12,303
